Results pooled from the literature.
Lines come from different studies, so protocols differ. “And” joins repeats or separate records; there may be more than shown.
Target: Serine/threonine-protein kinase 24 (STK24, Homo sapiens, UniProt Q9Y6E0)

| SMILES | test | test system | setting | how to read | measurement | value |
| --- | --- | --- | --- | --- | --- | --- |
| Cc1cnc2nc1Nc1cccc(c1)COC/C=C/COCc1cc(ccc1OCCN1CCOCC1)N2 |  |  | concentration not given, gene name MST3 |  | percent of control | 100% |
| C=CC(=O)N1CCCC(n2c(=O)c3ncccc3n(Cc3ccc(Oc4ccccc4)cc3)c2=O)C1 (stereo not shown) | cell-free assay, competition with immobilised ligand |  | 1 µM |  | remaining binding | 99% |
| COc1c(Cl)cccc1Nc1c(-c2ccncc2C#C[C@@]2(C)CCCN2C(=O)/C=C/CN(C)C)[nH]c2c1C(=O)NCC2 | binding, competition with immobilised ligand |  | 3 µM |  | remaining binding | 64% |
| CN1CCN(Cc2ccc(-c3ccc(CO[C@H]4CCC[C@@H]4NC(=O)c4cc(-c5cnn(C)c5)cnc4N)cc3)cc2)CC1 | enzyme activity, inhibitor |  | 0.1 µM |  | inhibition | 13% |
| COc1ccc(NC(=O)Nc2ccc3c(c2)C(=O)N(C(C)CO)CC(C)C(CN(C)Cc2ccc4c(c2)OCO4)O3)cc1 (stereo not shown) | kinase activity, KinaseProfiler |  | 0.03 µM, species human | reference: control | remaining activity | 94% |
| NC(=O)[C@@H](O)C[C@H]1CCc2sc3ncnc(O[C@H]4CC[C@H](N5CCOCC5)CC4)c3c21 | enzyme activity, inhibitor |  | 10 µM |  | inhibition | 9% |
| COc1c(OCCCN2CCOCC2)ccc2c1N=C(NC(=O)c1cnc(N)nc1)N1CCN=C21 | kinase activity, inhibitor |  | 1 µM | reference: untreated control | remaining activity | 112% |
| O=C=[N][Ru-4]123([n]4c5ccc(O)cc5c5c6c(c7cc(F)c[n+]1c7c54)C(=O)NC6=O)[S+]1CC[S+]2CC[S+]3CC1 (stereo not shown) | enzyme activity |  | 100 nM, human enzyme, with: 10 µM ATP | reference: untreated | remaining activity | 43% |
| O=C(Cc1ccc(OCc2ccccc2)cc1)NC1(C(=O)O)CCN(C(=O)c2ccc(-c3cccc(Cl)c3)cc2)CC1 | enzyme activity, inhibitor |  | 10 µM |  | activity vs control | 85% |
| CC(C)=CC1OC(C)(C)C2C=C3C(=O)C(Cl)=CC(O)C3C3C(O)C4OC4C(=O)C132 (stereo not shown) | cell-free assay, competition with immobilised ligand |  | 10 µM |  | remaining binding | 84% |
| CNC(=O)C[C@H](Cc1ccc(C#N)cc1)NC(=O)c1cc(-c2ccc(CN[C@H](C)c3ccc(C)cc3)o2)ccc1Cl | enzyme activity, inhibitor |  | 1 µM |  | activity vs control | 81% |
| N[C@H]1CC[C@H](Nc2nccc(-c3cccnc3Oc3ccc(NC(=O)NC4CC4)c4ccccc34)n2)CC1 | kinobead competition pulldown | HEK293/HCT116 lysate mixture | 10 µM, 1 h, 4 °C | lower = stronger competition | log2 LFQ intensity | 23.1 and 23.5 and 23.6 and 23.4 |
| C=CC(=O)Nc1cccc(-c2cnc3[nH]cc(C(=O)NC(C)(C)C)c3n2)c1 | enzyme activity, inhibitor |  | 0.1 µM |  | inhibition | 32% |
| Cc1cccc(O[C@H]2CCC[C@@H](C(C)CNCc3ccncc3)C2)c1 (relative stereo) | kinase activity, kinome panel screening |  | 10 µM |  | inhibition | -8% |
| Nc1ncc2c(n1)-c1c([nH]c3ccc(C4=CCOCC4)cc13)CCC2 | binding, competition with immobilised ligand |  | 1 µM |  | remaining binding | 100% |
| Cc1ccc(C(=O)Nc2ccc(CN3CCN(C)CC3)c(C(F)(F)F)c2)cc1C#Cc1cnc2cccnn12 | target engagement, NanoBRET | human cells |  |  | Hill slope | 0.0667 |

Some of these lines once more:
| SMILES | test | test system | setting | how to read | measurement | value |
| --- | --- | --- | --- | --- | --- | --- |
| O=C=[N][Ru-4]123([n]4c5ccc(O)cc5c5c6c(c7cc(F)c[n+]1c7c54)C(=O)NC6=O)[S+]1CC[S+]2CC[S+]3CC1 (stereo not shown) | enzyme activity |  | 100 nM, human enzyme, with: 10 µM ATP | reference: untreated | remaining activity | 43% |
